{"data": "Published values from different studies", "note": "Numbered parts are unrelated; each lists some results of a single study."}
{"data": "Study 1", "target": "Ras GTPase-activating protein-binding protein 1, full length (G3BP1, Homo sapiens, UniProt Q13283)", "method": "RNA Bind-n-Seq", "molecule type": "RNA", "medium": "in vitro", "tested at": "200 nM", "notes": "whole 134-nt RNA, ends assumed", "added": "150 mM KCl", "relative to": "input library", "reading": "higher = stronger binding", "shared flanks, not repeated": "GGGAGUUCUACAGUCCGACGAUC … UGGAAUUCUCGGGUGUCAAGG", "chain of UniProt Q13283 (whole entry, looked up)": "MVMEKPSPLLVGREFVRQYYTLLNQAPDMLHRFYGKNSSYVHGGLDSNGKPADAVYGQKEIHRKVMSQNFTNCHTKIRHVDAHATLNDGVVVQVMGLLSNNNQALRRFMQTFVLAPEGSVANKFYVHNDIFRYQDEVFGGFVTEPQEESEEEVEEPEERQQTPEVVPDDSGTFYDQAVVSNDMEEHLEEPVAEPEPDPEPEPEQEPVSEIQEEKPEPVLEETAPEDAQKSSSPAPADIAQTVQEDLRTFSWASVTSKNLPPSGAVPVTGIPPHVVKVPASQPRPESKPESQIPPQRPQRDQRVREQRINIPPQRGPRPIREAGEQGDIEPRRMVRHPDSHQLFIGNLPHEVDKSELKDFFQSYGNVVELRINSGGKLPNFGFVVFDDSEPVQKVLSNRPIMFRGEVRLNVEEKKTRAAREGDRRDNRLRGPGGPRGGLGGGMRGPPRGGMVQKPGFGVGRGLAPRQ"}
{"Oligonucleotide": "GUCCUGUGCUACACAUCGUAUGUACCGAAUCGGGCCCCCGGGCCCCCGGGGCCCCCGGAAAGUAUUAUGUUACGCCGUUCGGAUCUGCAC", "log2 enrichment": -0.953}
{"Oligonucleotide": "UCAAGUCCUGUGCUACACAUCGUAUGUACCGAAUCGGAAAAGGAAAAGGAAAAGGAAAGUAUUAUGUUACGCCGUUCGGAUCUGCACUUC", "log2 enrichment": -1.21}
{"Oligonucleotide": "CUCAAGUCCUGUGCUACACAUCGUAUGUACCGAAUCGGUUUGGGUUUGGUUUGGAAAGUAUUAUGUUACGCCGUUCGGAUCUGCACUUCC", "log2 enrichment": -0.381}
{"Oligonucleotide": "UAACUUUAGACGAGGAUCUGAUGGAUAUGGCAGUGGACGUGGAUUUGGGGAUGGCUAUAAUGGGUAUGGAGGAGGACCUGGAGGUGGCAA", "log2 enrichment": 0.357}
{"Oligonucleotide": "CUCAAGUCCUGUGCUACACAUCGUAUGUACCGAAUCGGGGUUGGGUUGGGUUGGAAAGUAUUAUGUUACGCCGUUCGGAUCUGCACUUCC", "log2 enrichment": 0.433}
{"data": "Study 2", "target": "Sal-like protein 4, full length isoform A (SALL4, Homo sapiens, UniProt Q9UJQ4, residues 1-1053)", "method": "universal PBM", "molecule type": "double-stranded DNA, one strand shown", "medium": "in vitro", "tested at": "600 nM", "notes": "8-mer, flanks averaged, mean of replicates", "reading": "higher = stronger binding", "chain of UniProt Q9UJQ4 (whole entry, looked up)": "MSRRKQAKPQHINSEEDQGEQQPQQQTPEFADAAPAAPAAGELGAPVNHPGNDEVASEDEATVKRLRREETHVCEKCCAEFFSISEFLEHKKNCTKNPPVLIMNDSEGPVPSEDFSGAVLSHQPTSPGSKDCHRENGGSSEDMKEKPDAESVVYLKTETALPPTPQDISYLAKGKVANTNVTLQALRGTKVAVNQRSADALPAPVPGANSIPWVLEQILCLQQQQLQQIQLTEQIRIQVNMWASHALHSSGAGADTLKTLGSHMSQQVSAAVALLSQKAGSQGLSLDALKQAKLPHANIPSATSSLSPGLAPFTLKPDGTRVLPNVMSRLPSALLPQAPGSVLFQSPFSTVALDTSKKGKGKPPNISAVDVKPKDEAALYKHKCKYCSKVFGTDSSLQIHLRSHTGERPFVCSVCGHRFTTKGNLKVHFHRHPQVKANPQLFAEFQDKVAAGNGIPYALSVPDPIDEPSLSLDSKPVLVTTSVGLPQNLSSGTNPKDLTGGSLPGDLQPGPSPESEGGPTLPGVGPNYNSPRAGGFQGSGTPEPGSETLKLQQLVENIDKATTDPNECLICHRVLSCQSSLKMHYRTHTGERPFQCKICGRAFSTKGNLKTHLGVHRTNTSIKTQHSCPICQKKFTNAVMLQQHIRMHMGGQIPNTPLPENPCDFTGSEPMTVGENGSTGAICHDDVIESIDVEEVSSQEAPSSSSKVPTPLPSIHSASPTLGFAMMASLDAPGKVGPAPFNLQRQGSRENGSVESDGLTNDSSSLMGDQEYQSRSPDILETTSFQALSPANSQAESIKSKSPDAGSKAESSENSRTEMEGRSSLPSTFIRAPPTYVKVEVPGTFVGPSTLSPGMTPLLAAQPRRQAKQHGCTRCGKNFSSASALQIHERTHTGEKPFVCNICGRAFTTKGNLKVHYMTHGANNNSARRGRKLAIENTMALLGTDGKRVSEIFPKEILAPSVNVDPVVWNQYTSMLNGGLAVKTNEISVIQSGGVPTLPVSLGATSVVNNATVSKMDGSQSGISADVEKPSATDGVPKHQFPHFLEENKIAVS"}
{"Oligonucleotide": "GGACAAGA", "E-score": -0.0145}
{"Oligonucleotide": "GATGTTCA", "E-score": -0.0538}
{"Oligonucleotide": "GGCTCGAC", "E-score": -0.257}
{"Oligonucleotide": "GATTCTTA", "E-score": 0.226}
{"Oligonucleotide": "ACCTGTCC", "E-score": -0.133}
{"Oligonucleotide": "GGATGAAA", "E-score": 0.0643}
{"Oligonucleotide": "TTACAAAA", "E-score": 0.258}
{"Oligonucleotide": "TCCGCCGA", "E-score": -0.215}
{"Oligonucleotide": "CAAGCTAC", "E-score": -0.113}
{"data": "Study 3", "target": "Interferon regulatory factor 7, full length, phosphomimetic (IRF7, Homo sapiens, UniProt Q92985, residues 1-503, S101K/S471D/S472D/S475D/S476D/S477D/S483D/S484D/S487D)", "method": "protein-binding microarray", "molecule type": "double-stranded DNA, one strand shown", "medium": "in vitro", "tested at": "250 nM", "notes": "60-bp whole probe", "added": "salmon DNA 0.4 mg/ml", "relative to": "random background probes", "reading": "higher = stronger binding", "shared flanks, not repeated": "GCCTAGCAC … GTGCTAGGTCTTGATTCGCTTGACGCTGCTG", "Construct (chain)": "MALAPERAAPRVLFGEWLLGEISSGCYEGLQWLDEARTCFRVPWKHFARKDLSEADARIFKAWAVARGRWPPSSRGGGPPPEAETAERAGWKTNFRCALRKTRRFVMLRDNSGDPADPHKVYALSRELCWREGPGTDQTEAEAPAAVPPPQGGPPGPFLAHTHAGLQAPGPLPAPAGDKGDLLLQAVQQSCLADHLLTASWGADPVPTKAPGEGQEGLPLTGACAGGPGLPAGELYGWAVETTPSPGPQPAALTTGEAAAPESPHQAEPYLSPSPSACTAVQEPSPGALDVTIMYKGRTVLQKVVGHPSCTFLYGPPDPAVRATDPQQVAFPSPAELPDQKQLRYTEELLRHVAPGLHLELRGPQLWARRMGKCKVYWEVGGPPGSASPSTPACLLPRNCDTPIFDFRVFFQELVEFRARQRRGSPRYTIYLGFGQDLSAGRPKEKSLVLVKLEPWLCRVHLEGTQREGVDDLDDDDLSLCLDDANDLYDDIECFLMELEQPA"}
{"Oligonucleotide": "GTCGATTTCAGACTGGAGAC", "log fluorescence": "0.605 z-score"}
{"Oligonucleotide": "TCACTTTTCTTTACTGAACT", "log fluorescence": "1.33 z-score"}
{"Oligonucleotide": "TTCTGATTGAATCTCCCATT", "log fluorescence": "-0.00876 z-score"}
{"Oligonucleotide": "TTAGGTATCCTACTGCTTGA", "log fluorescence": "-0.0777 z-score"}
{"Oligonucleotide": "GGAAATTCCAAGTTCATGGG", "log fluorescence": "0.403 z-score"}
{"Oligonucleotide": "TTAGCTCTCCTTATCCTTTA", "log fluorescence": "0.109 z-score"}
{"data": "Further values, each from its own experiment"}
{"Molecule": "PhoQ, residues 284 288 289 292 302 303 TGYLSA", "target": "PhoP, residues 12 14 15 18 19 GHCSL (Escherichia coli, UniProt P23836)", "assay": "Sort-seq, item: YFP reporter", "system": "E. coli", "conditions": "PhoQ-PhoP variant library, added: 10 µM Mg2+", "how to read": "relative to: high Mg2+ state, higher = stronger signaling", "quantity": "fold induction", "result": 19.2}
{"note": "A few entries again (study 1):"}
{"Oligonucleotide": "UAACUUUAGACGAGGAUCUGAUGGAUAUGGCAGUGGACGUGGAUUUGGGGAUGGCUAUAAUGGGUAUGGAGGAGGACCUGGAGGUGGCAA", "log2 enrichment": 0.357}
{"Oligonucleotide": "UCAAGUCCUGUGCUACACAUCGUAUGUACCGAAUCGGAAAAGGAAAAGGAAAAGGAAAGUAUUAUGUUACGCCGUUCGGAUCUGCACUUC", "log2 enrichment": -1.21}
